Experimental data from different studies.
Numbered parts are unrelated; each lists some results of a single study.

Study 1 — method: aptamer microarray, sandwich; molecule type: DNA with 2'F-ANA; matrix: in vitro; concentration: 200 nM; together with: Cy3 exosite-II aptamer, 400 nM; reading: higher = stronger binding; strand: GGTTGGTGTGGTTGG
Target: Prothrombin, mature alpha-thrombin (F2, Homo sapiens, UniProt P00734)
Notes: whole 15-mer aptamer, many near background
| Modification | mean fluorescence intensity [a.u.] |
| --- | --- |
| 2'F-ANA at 1 2 3 5 6 7 10 14 15 | 48.8 |
| 2'F-ANA at 6 7 9 10 11 12 | 168 |
| 2'F-ANA at 1 3 6 9 10 12 13 15 | 94.1 |
| 2'F-ANA at 3 4 5 7 9 11 13 14 15 | 52.3 |
| 2'F-ANA at 1 3 7 8 10 12 13 15 | 116 |
| 2'F-ANA at 1 2 4 5 8 10 14 15 | 47.2 |
| 2'F-ANA at 1 6 7 8 9 12 14 | 78.3 |
| 2'F-ANA at 2 4 5 8 13 15 | 53.3 |
| 2'F-ANA at 2 3 5 9 10 13 14 | 47.9 |
| 2'F-ANA at 1 2 5 6 10 | 47.4 |
| 2'F-ANA at 5 9 12 15 | 155 |
| 2'F-ANA at 1 2 3 5 6 7 8 9 10 11 12 13 | 68.7 |
| 2'F-ANA at 1 2 6 9 11 13 14 15 | 54.5 |
| 2'F-ANA at 1 4 6 10 13 14 | 48.1 |
| 2'F-ANA at 2 3 5 7 8 9 10 15 | 79.6 |
| 2'F-ANA at 1 3 5 9 10 11 12 15 | 59.1 |
| 2'F-ANA at 2 4 5 8 9 10 11 13 14 | 71.1 |
| 2'F-ANA at 3 4 6 7 9 12 14 15 | 254 |
| 2'F-ANA at 5 6 7 10 11 | 115 |
| 2'F-ANA at 2 3 4 6 7 8 11 12 15 | 775 |
| 2'F-ANA at 1 3 4 6 7 8 11 13 15 | 151 |
| 2'F-ANA at 1 2 3 4 6 7 8 10 11 14 | 52.3 |

Study 2 — method: RNAcompete; molecule type: RNA; matrix: in vitro; concentration: 20 nM; notes: 7-mer, probes averaged, single round; reference: mean of 7-mers; reading: higher = stronger binding
Target: PABPC1L2, full length, GST fusion (mouse, UniProt A0ABA7IW68)
Target sequence (chain): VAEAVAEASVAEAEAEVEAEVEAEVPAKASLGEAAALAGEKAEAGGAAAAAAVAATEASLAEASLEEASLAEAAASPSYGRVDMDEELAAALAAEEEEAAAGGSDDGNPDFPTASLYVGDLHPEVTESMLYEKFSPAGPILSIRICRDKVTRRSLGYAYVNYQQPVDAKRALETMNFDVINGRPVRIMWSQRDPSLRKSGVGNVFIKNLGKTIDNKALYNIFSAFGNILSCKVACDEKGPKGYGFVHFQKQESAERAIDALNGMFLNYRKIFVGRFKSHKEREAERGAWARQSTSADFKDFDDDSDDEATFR
| Strand | 7-mer Z-score |
| --- | --- |
| GUCCGUU | -0.324 |
| UUGGCUC | -0.19 |
| GAGCAAA | 0.831 |
| UGACUUU | -0.3 |
| CCUGCUC | -0.315 |
| UGUAAUU | -0.15 |
| GGGAACU | 0.0551 |
| CAAAUUA | 0.519 |
| GCACGCA | -0.05 |
| GAAUGAG | -0.128 |
| CUCGACG | -0.199 |
| CCUAUAG | -0.195 |
| GAGCACC | -0.168 |
| UUACGUU | -0.398 |
| GCUCAAC | -0.206 |
| UUAGUGG | 0.0152 |
| CUAGGGG | 0.207 |

Study 3 — method: protein binding microarray; molecule type: double-stranded DNA, one strand shown; matrix: in vitro; concentration: not given; reference: not given; reading: higher = stronger binding
Target: Histone acetyltransferase KAT6A, winged helix 1, GST fusion (KAT6A, Homo sapiens, UniProt Q92794, residues 1-85)
Notes: 8-mer, flanks averaged, mean of 2 arrays, mostly near background
Construct (chain): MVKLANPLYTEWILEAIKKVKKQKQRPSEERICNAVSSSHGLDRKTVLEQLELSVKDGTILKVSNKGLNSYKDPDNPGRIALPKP
| Strand | E-score |
| --- | --- |
| CCGTTGTC | 0.0961 |
| AATGTCCA | -0.277 |
| AAAGGGTC | 0.0186 |
| GATCAGCA | -0.169 |
| CTGATCAG | -0.17 |
| ATTCCTCA | -0.209 |
| GAGAACGC | 0.0157 |
| ATACGGCG | 0.386 |
| CGGCCACG | 0.26 |
| CAGGTGGA | -0.232 |
| CGAAGCGA | 0.0332 |
| CACAGTGA | -0.196 |
| GCTTAGAC | 0.0877 |
| AGTGGTTA | -0.196 |
| GGAGCCGA | 0.175 |
| CGGAGATA | 0.177 |
| CGCGAGTC | 0.229 |
| ATCAGACC | 0.117 |
| AACAGTCC | -0.147 |
| CGTGAACA | 0.116 |

Study 4 — method: universal PBM; molecule type: double-stranded DNA, one strand shown; matrix: in vitro; concentration: not given; reading: higher = stronger binding
Target: Sal-like protein 4, full length isoform B (SALL4, Homo sapiens, UniProt Q9UJQ4-2, residues 1-616)
Notes: 8-mer, flanks averaged, mean of replicates
Target sequence (chain): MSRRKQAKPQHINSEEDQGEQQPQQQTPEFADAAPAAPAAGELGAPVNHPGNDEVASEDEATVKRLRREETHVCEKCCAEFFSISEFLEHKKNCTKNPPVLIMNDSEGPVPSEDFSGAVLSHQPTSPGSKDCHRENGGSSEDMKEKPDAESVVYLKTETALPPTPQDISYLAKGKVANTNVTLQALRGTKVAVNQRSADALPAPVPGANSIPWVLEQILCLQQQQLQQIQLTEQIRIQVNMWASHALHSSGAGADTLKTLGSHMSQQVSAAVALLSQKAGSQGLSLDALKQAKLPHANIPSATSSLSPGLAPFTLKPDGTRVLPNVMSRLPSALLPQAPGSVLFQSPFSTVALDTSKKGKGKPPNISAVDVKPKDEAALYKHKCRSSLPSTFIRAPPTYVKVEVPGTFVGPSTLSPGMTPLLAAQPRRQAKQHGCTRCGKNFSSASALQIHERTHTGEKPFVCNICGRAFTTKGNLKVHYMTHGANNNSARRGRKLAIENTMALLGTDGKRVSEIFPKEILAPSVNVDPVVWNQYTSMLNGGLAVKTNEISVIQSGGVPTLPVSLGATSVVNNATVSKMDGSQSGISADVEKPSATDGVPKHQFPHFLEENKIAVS
| Strand | E-score |
| --- | --- |
| TCATAAAA | 0.373 |
| ATTAGCAG | 0.0188 |
| ATCCCCCA | -0.0659 |
| ACGCCGAT | -0.0648 |
| TCTGAACA | 0.0829 |
| GGCAAGCC | -0.294 |
| AACGGTTC | -0.104 |
| CAAGTCTC | -0.161 |
| CTGTTCTA | 0.106 |
| CGTTGCGA | -0.0841 |
| GGCTTCAC | -0.034 |
| ATACGCGA | 0.0741 |
| TGACGCCA | -0.151 |
| AATACTGG | 0.00125 |
| AGGCACGG | -0.102 |
| GGAGAATA | 0.233 |
| ACCAAACG | -0.115 |
| AGTGCTCC | -0.212 |
| GGGAGCGA | -0.28 |
| ATAAACCA | 0.222 |
| GCAAGCAA | 0.109 |
| TCTTGTAA | 0.256 |
| CAAAACGG | -0.00228 |
| GCAACGGC | -0.126 |
| CACTGCCG | -0.308 |

Study 5 — method: RNA Bind-n-Seq; molecule type: RNA; matrix: in vitro; concentration: 365 nM; reference: no-protein control; reading: higher = stronger binding
Target: RNA binding protein fox-1 homolog 2, RRM domain, GST-SBP tag (RBFOX2, Homo sapiens, UniProt O43251-10, residues 100-194)
Notes: natural RNA segment, single round, ends assumed
Residues (chain): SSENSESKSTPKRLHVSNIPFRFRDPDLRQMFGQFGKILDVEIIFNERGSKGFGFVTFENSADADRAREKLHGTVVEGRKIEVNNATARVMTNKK
| Strand | RBNS enrichment (R) |
| --- | --- |
| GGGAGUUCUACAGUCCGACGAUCCAAAGUGGAAUAAAAGGUUUCUGAGCAUAAAGUAGCUCUUCAGUAGUUACAACCUAUUCUUUUGCAUACAUAGCCUUUCCUUCCCUGCAAAAAGUUAAGCCUGCUAAGUAUGGAAUUCUCGGGUGCCAA | 0.526 |
| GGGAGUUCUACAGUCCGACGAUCAUUUCCUCGGGAUAUGAGAAGCCUCGAUAAACAUCUCUGCCGUUCCCCAUCCCUAUAUCAACACUCUGGCUUCCCUUUCUCCCAUAUCACACUCUGGCCCAAGGACCCCAUGGAAUUCUCGGGUGCCAA | 0.984 |
| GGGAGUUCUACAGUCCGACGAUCGCCUGUGUGUUACCACUGCCUCAUCAGGAGGCUGCCAUUGGCAGUGGCUGCUGCUGGCCUCCCUGCAAGUCCCCUCUUCUUCCUGUUGCGUGCCUGGACUCAGGAGCAUAUGGAAUUCUCGGGUGCCAA | 1.69 |
| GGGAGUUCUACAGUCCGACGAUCGUGACAUUAGUUCCUUCUUCUGCUAUCCCCAAAACCUCAGAAACCUCAUAAUUCUUAACACCUGGCAUUUCCAUUUCUAAAGAUGGACAGGCCCUUUGGCGUGGUACCAAUGGAAUUCUCGGGUGCCAA | 0.793 |
| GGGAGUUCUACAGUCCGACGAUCUCCUAACAAAGUCUCAUAGUGUUAACACUGGUUCUGCAAUAUCUCUGAGGUGCAAAGAAUGCACUUUUCCCUAUGGGGCCCAGAGUUUGCCUUUUCUGCCAGGCAGUCACUGGAAUUCUCGGGUGCCAA | 0.43 |
| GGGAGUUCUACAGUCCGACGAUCCCCCGGCCCCCCGCGCUCGCCCAGCAGGAGAGACUGAGCAGCCGCCAGCUGGGAGCACUGGUGUGAACUCACCCUGGGAGCCAGUCCUCCACUCGACCCAGAAUGGAGCCUGGAAUUCUCGGGUGCCAA | 0.316 |
| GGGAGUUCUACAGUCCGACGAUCAAUUUUUGACUUCCCUAUUUCAGAGAUAGUCAAUAUAAUAUGUUUAUCUAUAUCCAUAUGGAUGGAUAGGUAGGUAGAUCUUCAUAGAUUUUUUUUUCUUUUGUUAGAGGUGGAAUUCUCGGGUGCCAA | 0.575 |
| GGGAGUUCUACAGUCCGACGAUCAUUUCCUUAUUAUCAGAUGUAUUUUUUCUUUUAAGUUUCAAUGUUGUUAUAAUUCUCAACCAGAAAUUUAAUACUUUCUAAAAUAUUUUUUAAAUUUAGCUUGUGCUUUUUGGAAUUCUCGGGUGCCAA | 2.19 |

A few entries again (study 1):
| Modification | mean fluorescence intensity [a.u.] |
| --- | --- |
| 2'F-ANA at 1 2 3 5 6 7 10 14 15 | 48.8 |
| 2'F-ANA at 1 4 6 10 13 14 | 48.1 |
| 2'F-ANA at 3 4 5 7 9 11 13 14 15 | 52.3 |
| 2'F-ANA at 3 4 6 7 9 12 14 15 | 254 |
| 2'F-ANA at 1 2 6 9 11 13 14 15 | 54.5 |
| 2'F-ANA at 2 3 4 6 7 8 11 12 15 | 775 |
| 2'F-ANA at 2 4 5 8 9 10 11 13 14 | 71.1 |
